Results from different studies.
Each numbered part is a random draw from the data of one study; scales do not carry over between parts.

Sample 1 — method: protein binding microarray; molecule type: double-stranded DNA, one strand shown; matrix: in vitro; concentration: not given; reference: not given; reading: higher = stronger binding; measurement: E-score
Target: Histone acetyltransferase KAT6A, both winged helices, GST fusion (KAT6A, Homo sapiens, UniProt Q92794, residues 1-181)
Notes: 8-mer, flanks averaged, mean of 2 arrays, mostly near background
Residues (chain): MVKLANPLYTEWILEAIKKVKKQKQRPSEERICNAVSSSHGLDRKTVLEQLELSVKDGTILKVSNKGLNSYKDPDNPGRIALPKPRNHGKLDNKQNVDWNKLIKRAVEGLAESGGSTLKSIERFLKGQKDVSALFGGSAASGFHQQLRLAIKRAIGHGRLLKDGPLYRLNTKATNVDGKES
Sequence = AGCGAACG; result = 0.138
Sequence = ACGAATCC; result = -0.0248
Sequence = AGCAATTG; result = 0.0767
Sequence = ATTACAGC; result = 0.0286
Sequence = AACCCAGC; result = -0.0696
Sequence = ATCAGACA; result = -0.0446
Sequence = CCTAAAGA; result = -0.0752
Sequence = CGCCTCAA; result = 0.0747

Sample 2 — method: protein-binding microarray; molecule type: double-stranded DNA, one strand shown; matrix: in vitro; concentration: 2200 nM top; notes: 60-bp whole probe; together with: salmon DNA 0.4 mg/ml; reference: random background probes; reading: higher = stronger binding; measurement: fitted relative affinity; constant ends, left off below: GCCTAGCAC … GTCTTGATTCGCTTGACGCTGCTG
Target: Interferon regulatory factor 7, full length, phosphomimetic (IRF7, Homo sapiens, UniProt Q92985, residues 1-503, S471D/S472D/S475D/S476D/S477D/S483D/S484D/S487D)
UniProt Q92985, sequence (whole entry, unmodified, looked up): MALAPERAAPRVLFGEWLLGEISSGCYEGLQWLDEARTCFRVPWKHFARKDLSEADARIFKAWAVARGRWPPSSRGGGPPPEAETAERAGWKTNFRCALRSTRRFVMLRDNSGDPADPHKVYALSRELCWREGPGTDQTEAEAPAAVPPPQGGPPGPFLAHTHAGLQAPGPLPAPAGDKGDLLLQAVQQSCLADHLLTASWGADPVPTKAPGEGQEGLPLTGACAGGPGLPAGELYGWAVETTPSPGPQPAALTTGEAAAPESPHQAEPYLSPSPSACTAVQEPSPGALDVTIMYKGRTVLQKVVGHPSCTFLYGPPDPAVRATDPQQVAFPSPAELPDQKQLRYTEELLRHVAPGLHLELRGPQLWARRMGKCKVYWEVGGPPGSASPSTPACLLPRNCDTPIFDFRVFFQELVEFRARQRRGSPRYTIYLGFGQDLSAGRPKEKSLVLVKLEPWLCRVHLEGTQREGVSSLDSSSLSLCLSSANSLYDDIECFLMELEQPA
Sequence = GACGGAATCGACACTGGGGACGTGCTA; result = -0.36 z-score
Sequence = TTAGGACAGGACTTTCGGTTAGTGCTA; result = 5.08 z-score
Sequence = TTTGATTCCAGTTTCGATTAGTGCTAG; result = 6.57 z-score
Sequence = TCACGAGTCCCTATCTCACTGTGCTAG; result = 1.21 z-score
Sequence = TTTTTTTCATATATATATGAGTGCTAG; result = 1.46 z-score
Sequence = GACGGTTTCCATTTCCTGACGTGCTAG; result = 5.66 z-score
Sequence = TCAAATCTCACTCTGTCACTGTGCTAG; result = 0.847 z-score
Sequence = TCATGTGTGCATCTATCACTGTGCTAG; result = 0.643 z-score

Single results of other studies
Molecule = YWHAQ (Homo sapiens, UniProt P27348); tested on = YWHAB (Homo sapiens, UniProt P31946); assay = cross-linking MS; test system = cell fractions; setting = together with: DSSO; measurement = cross-linked residues; result = K85 to K11
Molecule = KTNDFAPAW; tested on = HLA class I histocompatibility antigen, A alpha chain, allele A*80:01 (Homo sapiens, UniProt P04439); assay = peptide-MHC binding; test system = peptide; setting = concentration not given; measurement = binding; result = inactive
Molecule = SYNCRIP (Homo sapiens, UniProt O60506); tested on = HNRNPC (Homo sapiens, UniProt P07910); assay = cross-linking MS; setting = hits only; measurement = interaction screen; result = cross-linked
Molecule = BOP1 (Homo sapiens, UniProt Q14137); tested on = NOC3L (Homo sapiens, UniProt Q8WTT2); assay = cross-linking MS; test system = cell fractions; setting = together with: DSSO; measurement = cross-linked residues; result = K339 to K147
